# Experimental data pooled from the literature.
# Protocols differ between the studies behind these lines. Values joined by “and” are separate records of one study, mostly repeats; a detail may differ. ± gives the spread as reported.
SMILES,test,system,setting,how to read,measurement,value
Cc1cccc([C@H]2N[C@@H](c3ccc4ccccc4c3)COC2(C)C)c1,"shake-flask, LC-HRMS",aqueous buffer,"16 h, pH 6.8",,solubility,< 4 µM
C[C@@H](Oc1ccc(S(C)(=O)=O)cc1C(=O)N1C[C@@H]2C[C@]2(c2cc(C(F)(F)F)on2)C1)C(F)(F)F,,"elderly humans, plasma","oral, 25 mg once daily, geometric mean","relative to: AUCtau,ss over AUC(0-inf)",linearity index,0.964
Cc1cnc(N2CC3(CCOCC3)C2)c(C(=O)Nc2ccc(C(=O)N3CCc4cc(C(=O)Nc5c(C)cccc5F)sc4-c4ccccc43)cc2)c1,,"rat, plasma","inhaled, 2.7 mg/kg",,duration of systemic exposure after dosing,≤ 12 h
CN(CCCN1CCN(C(=O)CN2CCN(CC(=O)[O-])CCN(CC(=O)[O-])CCN(CC(=O)[O-])CC2)CC1)c1ccc2nccc(C(=O)NCC(=O)N3CC(F)(F)C[C@H]3C#N)c2c1.[68Ga+3],,"mice, HT-1080.hFAP and HT-1080 wild-type xenografts, spleen","iv, 500 pmol, 4 h post injection",,uptake,0.2 ± 0.1 %IA/g
Cc1ccc(=O)n(-c2ccccc2)c1,,healthy human,"oral, 600 mg single, alone",,"AUC(0-t), LS geometric mean",40000 ng·h/mL
N[C@@H](C[18F])C(=O)O,PET imaging,"female athymic nude mice, U-87 MG xenograft, muscle","intravenous, 60 min",,tracer uptake,0.88 ± 0.18 %ID/cc
CC(C)(C(=O)N1CCOc2c(C#N)cncc2C1)C(F)F,item: abnormal urine odour,"human, both sexes","oral, 20 mg twice daily, 14 days, multiple ascending dose",,subjects with TEAE,0%
O=c1[nH]c(=O)n([C@@H]2O[C@H](CO)[C@@H](O)[C@@H]2F)cc1CCC[18F],,"nude mice, RG2 tumour, bone","intravenous, dose not given, 2 h",,biodistribution,0.77 ± 0.27 %ID/g
CC(=O)O[C@@]12CO[C@@H]1C[C@H](O)[C@@]1(C)C(=O)[C@H](O)C3=C(C)[C@@H](OC(=O)[C@H](O)[C@@H](NC(=O)OC(C)(C)C)c4ccccc4)C[C@@](O)([C@@H](OC(=O)c4ccccc4)[C@H]21)C3(C)C,,SNEDDS preconcentrate,24 h,,equilibrium solubility,15.3 ± 2.16 mg/g
O=C(O)CCC(=O)O.[2H]C([2H])([2H])Oc1cc(C)c2[nH]ccc2c1CN1CC[C@@H](C2CC2)C[C@H]1c1ccc(C(=O)O)cc1,multiple ascending dose,healthy Chinese subjects,50 mg twice daily,,subjects with TEAE Appendicitis,0%
NC1(C(=O)N[C@@H](CCO)c2ccc(Cl)cc2)CCN(c2nc[nH]c3nccc2-3)CC1,,metastatic CRPC patients,"dose not given, any grade, treatment-related, all doses, added: enzalutamide 160 mg daily",,incidence of Hyper-glycaemia,46.7%
COc1cc2nccc(Oc3ccc(NC(=O)c4cc5c(n(-c6ccccc6)c4=O)CCCC5=O)nc3)c2cc1OC,,patients with relapsed/refractory AML,"oral, 3 mg once daily",,drug-related TEAEs leading to interruption,0%
O=C(O)CCCCCCCCCCC(=O)O,,"human, plasma","oral, dose not given, control",,Cmin,18.5 ± 2.4 nM
CSc1ccccc1C(=O)NCCn1cc(C(=O)NCc2cccc(C)n2)c(=O)c2cc3c(cc21)OC(F)(F)O3,,"Sprague-Dawley rat, male, plasma","intravenous, 5 mg/kg of parent drug",,MRT(0-inf),46.2 ± 19.8 min
O=C(Nc1nc2cccc(-c3ccc(CN4CCS(=O)(=O)CC4)cc3)n2n1)C1CC1,item: injection site haematoma,human rheumatoid arthritis patients,"oral, 75 mg once daily, 4 weeks, regardless of relatedness",,treatment-emergent adverse events,0%
COc1ccc([C@@H](O)c2cc(-c3ncnc4cc(N5CCOCC5)ccc34)c(F)cc2Cl)nn1,,locally advanced rectal cancer,"oral, 50 mg, added: capecitabine and radiotherapy",,rectal haemorrhage TEAE,0%
O=C1NCCc2nc(OCc3cccc(F)c3)ccc21,item: Mydriasis,Sprague-Dawley rat male,"oral, 100 mg/kg, 0 min","relative to: baseline, direction not given",Irwin test score,0
CN(C)C(=N)N=C(N)N,item: gastrointestinal disorders,healthy human,"oral, dose not given",,subjects with adverse event,29.2%
CCOC(=O)N1C[C@@H](C2CCCCC2)N[C@@H](c2cccc(Br)c2)C1,"shake-flask, LC-HRMS",aqueous buffer,"16 h, pH 6.8",,solubility,< 4 µM
CC1(C)CCC(CN2CCN(c3ccc(C(=O)NS(=O)(=O)c4ccc(NCC5CCOCC5)c([N+](=O)[O-])c4)c(Oc4cnc5[nH]ccc5c4)c3)CC2)=C(c2ccc(Cl)cc2)C1,,"human, blood","concentration not given, visit 2 after treatment",,absolute neutrophil count,6200 cells/µL and 3400 cells/µL
COc1nc(-c2cc(C)c(N[C@@H](C)c3cc(F)cc(F)c3)nn2)ccc1-n1cnc(C)c1,,"cynomolgus monkey, male, plasma","intravenous, 1 mg/kg",,MRT(0-t),170 min
O=c1cc(-c2ccc(OS(=O)(=O)[O-])cc2)oc2cc(OS(=O)(=O)[O-])cc(OCc3cccc(COc4cc(OS(=O)(=O)[O-])cc5oc(-c6ccc(OS(=O)(=O)[O-])cc6)cc(=O)c45)n3)c12.[Na+].[Na+].[Na+].[Na+],,pooled human plasma,,,concentration doubling PT,> 855000 nM
C[C@H]1CN(C(=O)CC#N)[C@]12CCN(c1ncnc3[nH]ccc13)C2,,"healthy adults, plasma","oral, 6 mg single dose",,"Tmax, mean",54 min
CNCCOC12CC3(C)CC(C)(CC(Cn4ncc(-c5ccc(N6CCc7cccc(C(=O)Nc8nc9ccccc9s8)c7C6)nc5C(=O)O)c4C)(C3)C1)C2,,"beagle dog, male, anaesthetised","intravenous bolus, 0.03 mg/kg, 15 min",relative to: baseline,QRS duration change,0 ms
CC(=O)N(C)C1CCN(c2cc(F)cc(NC(=O)c3cc4c(F)ccc(C)c4[nH]3)c2)C1 (centres unmarked),,CD1 mouse,"oral, 50 mg/kg",,AUC(0-inf),148 ng·h/mL
CCCCOC(=O)N1CCN(C(=O)[C@H](CP(=O)(O)O)NC(=O)c2cc(N3CC[C@H](OC)C3)nc(-c3ccccc3)n2)CC1,item: alanine aminotransferase,"human, blood","16 mg, 24 h",,change from baseline,-0.3 ± 4.8 U/L
CN1CCN(c2cccc3c2CCN(C(=O)/C=C/c2c(-n4cnnn4)ccc(Cl)c2F)[C@@H]3C(=O)Nc2ccc(C(=O)O)cc2)C(=O)C1,,healthy human subjects,"intravenous infusion, 4 mg/h, 2 h",,discontinuations due to adverse events,0%
N#Cc1ccc2c(c1)[C@H]1CCCN(C(=O)c3ccc4[nH]cnc4c3)[C@H]1C2,,human females,"160 mg, day 7",,total testosterone level,0.8 nmol/L
Cc1c(C(=O)O)ccc2c3n(nc12)[C@@H]1[C@H](C3)N(CC2CC2)[C@@]2(C(=O)Nc3cc(Cl)ccc32)[C@H]1c1cccc(Cl)c1F,"phase Ia trial, item: Dysgeusia",cancer patients,"oral, dose not given, all patients all grades",,adverse event incidence,18.5%
CCN1CCN(Cc2ccc(NC(=O)c3ccc(C)c(NC(=O)c4cncc(-c5cccs5)c4)c3)cc2C(F)(F)F)CC1,,"C57BL/6 mice, epithelial lining fluid","intraperitoneal, 30 mg/kg",,apparent volume of distribution,8.64 L/kg
CNC(=O)c1ccc(-c2cnc3ncc(Cc4ccc5ncccc5c4)n3n2)cc1F,item: Dizziness,cancer patients,"oral, 600 mg twice daily, all expansion cohorts, grade 3-4",,patients with adverse event,0%
CCC(=O)N(CCC(c1ccc2c(c1)OCO2)c1ccccc1OC)Cc1ccccc1 (centres unmarked),,"female athymic nude mouse, blood","i.p., 60 mg/kg twice daily, 14 days, group mean",,MPV,5.72 fL
CC[C@H]1CC[C@H](c2ccc(-c3ccc(F)c(F)c3)cc2)CC1,,"rat, placenta","10 ng/mL in perfusate, low dose, mixture of 21 LCMs",,placental accumulation,2.17 ± 3.97 ng/g
O=C(CCCCCCC(=O)Nc1ccc(CC[18F])cc1)NO,,"athymic nu/nu male mice, LNCaP xenograft, small intestine","intravenous, 0.5 h",,tissue uptake,15.3 ± 2.9 %ID/g
O=c1[nH]c(=O)n([C@@H]2O[C@H](CO)[C@@H](O)[C@@H]2F)cc1CCCCC[18F],,"nude mice, RG2 tumour, lung","intravenous, dose not given, 2 h",,biodistribution,0.12 ± 0.03 %ID/g
Cc1ccc([C@@H]2O[C@H](CO)[C@@H](O)[C@H](O)[C@H]2O)cc1Cc1ccc(-c2ccc(F)cc2)s1,,Japanese type 2 diabetes patients,"200 mg, day 1, 24 h urine collection",relative to: baseline,urinary sodium excretion change,44.3 mEq
Cn1cc(Nc2nc(N)nc(-c3cccc(-n4ccc5cc(C6CC6)cc(F)c5c4=O)c3CO)n2)cn1,,healthy subjects,"oral, 300 mg tablet, fasted",,drug-related vomiting subjects,0%
C=CC(=O)NC1CCN(c2ncc3ncnc(Nc4ccc(Oc5ccc6c(c5)ncn6C)c(C)c4)c3n2)CC1,,"human, male","oral, 240 mg, treatment-emergent adverse event",,participants with presyncope,6.3%
Cn1cc([C@@H]2COC[C@H](c3cccc(Br)c3)N2)cn1,"shake-flask, LC-HRMS",aqueous buffer,"16 h, pH 6.8",,solubility,> 750 µM
O=C(COc1ccc(Cl)cc1)NC12CC(c3nnc([C@H]4C[C@@H](OC(F)(F)F)C4)o3)(C1)C2,item: Presyncope,human,"100 mg once daily, 28 (unit not given)",,adverse event incidence,10%
Cc1cc([C@H]2C[C@H]3[C@@H](CF)SC(N)=N[C@@]3(c3ccc(F)cc3F)CO2)on1,,"male 129/SVE mouse, brain","subcutaneous, 30 mg/kg, 3 h",,brain concentration,952 nM
CN1CCC[C@H](CN2c3ccccc3Sc3ccccc32)C1.Cl,,"ICR mouse female fasted, brain","oral, 16 mg/kg",,AUC(0-t),19200 ng·h/mL
CC[C@H](C)C(=O)N1CCC(NC(=O)Nc2ccc(OC(F)(F)F)c(F)c2)CC1,,Miglyol 810,,,equilibrium solubility,2000 µg/mL
C[C@H]1O[C@@H](O[C@H]2[C@@H](O)C[C@H](O[C@H]3[C@@H](O)C[C@H](O[C@H]4CC[C@@]5(C)[C@H](CC[C@@H]6[C@@H]5C[C@@H](O)[C@]5(C)[C@@H](C7=CC(=O)OC7)CC[C@]65O)C4)O[C@@H]3C)O[C@@H]2C)C[C@H](O)[C@@H]1O,item: nervous system disorders,healthy men,"oral, dose not given, 8 days, treatment-emergent, crossover trial",,subjects with adverse event,4.5%
CCOc1c([C@H](C)n2nc(C)c3c(N)ncnc32)cc(Cl)c(F)c1[C@@H]1CNC(=O)C1,,"human patients, indolent lymphoma, plasma","oral, 20 mg, day 15, monotherapy, geometric mean",,Cmin,202 nM
CC(=O)N(C)[C@H]1CCN(C(=O)c2cnc3c(c2)C[C@](C)(c2ccc(F)cc2)N3)C1,,human,dose not given,,aspartate aminotransferase,497 U/L
CCC[C@H]1CC[C@H](c2ccc(C#N)cc2)CC1,,"Sprague-Dawley rat, female, placenta","10 ng/mL in perfusate, 50 (unit not given), low dose, mixture of 21 LCMs",,placental accumulation,85.1 ± 19 ng/g
Cc1cc(Nc2ccc(S(F)(F)(F)(F)F)cc2)n2nc(C(C)(F)F)nc2n1,,Plasmodium vivax malaria patients,"oral, 400 mg",,adverse event gastrointestinal disorders,20%
CCc1cc(C(=O)NC)c2nccc(N3CCc4c(cc(Cn5ccnc5)cc4-c4cn(C)nc4C(F)(F)F)C3=O)c2c1,,Sprague Dawley rats,"oral, 100 mg/kg twice daily, 7 days",relative to: vehicle,blood TP change,-1%
O=c1[nH]c(=O)n([C@H]2C[C@H](O)[C@@H](CO)O2)cc1CCC[18F],,"male CD-1 nu/nu mice, RG2 tumour, bone","intravenous, dose not given, 2 h",,biodistribution,0.45 ± 0.16 %ID/g
Cc1ccc(Sc2ccccc2N2CCNCC2)c(C)c1,,healthy female adults,"oral, 5 mg daily, 12 days",,increased blood creatine phosphokinase,0%
CCN1/C(=C/C(C)=O)Sc2ccc(F)cc21,,cynomolgus monkey,"oral, 10 mg/kg, 24 h post-dose",relative to: pre-dose,QTc interval change,96.7 ± 2.1%
COc1cccc(-c2n[nH]c(SCc3ccccn3)n2)c1OC,,"Sprague-Dawley rats, both sexes","oral dietary, 100 mg/kg/day, day 90, 1 h",,plasma concentration,4540 ng/mL
Fc1ccc([C@@H]2COC[C@H](c3cccc(Br)c3)N2)cc1,"shake-flask, LC-HRMS",aqueous buffer,"16 h, pH 6.8",,solubility,< 4 µM
CCNC(=O)[C@@H]1CCCN1C(=O)[C@H](CCCNC(=N)N)NC(=O)[C@H](CC(C)C)NC(=O)[C@@H](CC(C)C)NC(=O)[C@H](Cc1ccc(O)cc1)NC(=O)[C@H](CO)NC(=O)[C@H](Cc1c[nH]c2ccccc12)NC(=O)[C@H](Cc1c[nH]cn1)NC(=O)[C@@H]1CCC(=O)N1,,healthy female volunteers,"dose not given, all treatment groups combined",,increased libido incidence,21%
COc1ccc2c(c1)CN(C(=O)CCN1CCC(Cc3ccccc3)CC1)CC[S@@+]2[O-],telemetry,conscious male beagle dogs,"intravenous, 4 mg/kg, 4 h",,QRS duration,34 ± 10 ms
